Measurements pooled from the literature.
Parts stem from different laboratories: compare values within a part only.

Set 1
Target: Histone acetyltransferase KAT6A, winged helix 1, GST fusion (KAT6A, Homo sapiens, UniProt Q92794, residues 1-85)
Technique: protein binding microarray
Form: double-stranded DNA, one strand shown
Matrix: in vitro
Tested at: not given
Notes: 8-mer, flanks averaged, mean of 2 arrays, mostly near background
Reference: not given
Reading: higher = stronger binding
Measurement: E-score
Construct (chain): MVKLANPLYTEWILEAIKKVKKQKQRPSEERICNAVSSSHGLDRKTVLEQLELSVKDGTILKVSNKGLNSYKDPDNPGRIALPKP
AAGAACAT: -0.153
CTGGTCCA: -0.203
AAGATTTC: 0.0191
AACCGAGG: -0.124
ATTGCAGG: -0.093
GTCGGAGA: 0.183
ATACGTCC: 0.0854
ACTTTCGA: -0.0372
GCAGAGGA: -0.26
ATATGCTC: -0.0381
GCTATCAA: -0.0422
CGCTTTGA: 0.136
GTTTCGTA: -0.0797
CAGTCGAG: -0.14
AGTTTAAA: -0.16
CAAACATA: -0.2
AGTAAGTG: -0.0992
CAGCCTGA: -0.192
TAGCGAGA: -0.0947
ATCTGTGC: -0.088
CTTGCGCA: 0.29
ATGGCGCC: 0.226

Set 2
Target: RNA binding protein fox-1 homolog 2, RRM domain, GST-SBP tag (RBFOX2, Homo sapiens, UniProt O43251-10, residues 100-194)
Technique: RNA Bind-n-Seq
Form: RNA
Matrix: in vitro
Tested at: 365 nM
Notes: natural RNA segment, single round, ends assumed
Reference: no-protein control
Reading: higher = stronger binding
Measurement: RBNS enrichment (R)
Shared flanks, not repeated: GGGAGUUCUACAGUCCGACGAUC … UGGAAUUCUCGGGUGCCAA
GACUGAUUUUUGAAGUAUACCACAGACAAAAAGUUGUUACUAUGGUAAACUAAGCUAGUUUAACACUUGAGCAAAUGCUUAAGAAGGAAUUAAAAAAAAAAAGCUUUGCC: 0.707
AUCCAAGCCGCAUAUCUACUGCAUUAAAUUUGUCCAUUUGGUUAUUCAUAAUCGGGUAUUGCAUUUUGCCUUCCCUGUCCAUACCUCAAAUUGAUUGAUACCUCAGUUUA: 2.4
AUAAGCUUUUGAUUUUUGUAUUGUUUGCAUCCCCUUGCCCUCAAUAAAUAAAGUUCUUUUUUAGUUCAAAUUUGAGACAGAAUGUUUGUUGUUCCCUCAGAAAUUCUUGU: 0.436
GUGUUGUUAGUGCUGGGCACGGAUUCUGGGACGGUGAGCUGUUGAUUUCCUAACAGAAAGAUAUUUUGAUCUAUUUUCCUAUGGAAUUGUUUCUAUUAUUAUCUUUUAAU: 0.428
CAGCUACUCGGGAGGCUGAGGCAGGAAGAAUCACUUGAACCCAGGAGGCGGAGGUUGCAGUGUGCCAAGAUCAUACCACUGCACUCCAGCCCUGGUGACAGAGGAGACCC: 0.589
GUAGUGCAGAAAGAAUCCAGGGAUGGGAGGGGAAGGGACGGAUGGGUGCUCAAUUGCUGCUCACGUCUGCUGCAACCUGAAGCUUGCAUCUCAGCCAGCAGAUCUGCUCC: 0.43
ACAGUGAGACAAAUGGAAGUACUCCCCUCGCAGAUUCAGACACUCCAAACGGGACACAGCAAGACGAGACCGUUGACAGCCAGGACAGUAAUGCCAUUGCCGCCGUCAAG: 1.14
CUGGAGGGGAAGGUGGGUGGGCGUUCUCUAAGGCACAACACCCCAAAGGCCGACUGUACCCAUGAGAGGUGCCUCACAGCAGGAGACUAAGAUCUGUUGAUGCUCUGAGG: 0.643

Set 3
Target: Ras GTPase-activating protein-binding protein 1, C-terminal RGG region (G3BP1, Homo sapiens, UniProt Q13283)
Chain of UniProt Q13283 (whole entry, looked up): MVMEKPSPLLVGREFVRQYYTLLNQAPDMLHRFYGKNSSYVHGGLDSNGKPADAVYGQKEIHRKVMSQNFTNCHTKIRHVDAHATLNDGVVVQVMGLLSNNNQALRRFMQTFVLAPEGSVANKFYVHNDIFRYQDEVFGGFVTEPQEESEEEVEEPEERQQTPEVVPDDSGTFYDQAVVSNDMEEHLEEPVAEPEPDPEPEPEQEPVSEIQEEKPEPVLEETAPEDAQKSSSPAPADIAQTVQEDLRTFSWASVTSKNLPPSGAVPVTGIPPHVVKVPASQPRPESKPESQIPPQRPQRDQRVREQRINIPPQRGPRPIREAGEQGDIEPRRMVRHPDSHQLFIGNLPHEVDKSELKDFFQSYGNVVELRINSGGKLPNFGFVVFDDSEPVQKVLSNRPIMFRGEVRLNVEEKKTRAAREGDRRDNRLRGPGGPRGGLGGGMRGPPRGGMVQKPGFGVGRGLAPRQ
Technique: RNA Bind-n-Seq
Form: RNA
Matrix: in vitro
Tested at: 1 µM
Notes: whole 134-nt RNA, ends assumed
Added: 150 mM KCl
Reference: input library
Reading: higher = stronger binding
Measurement: log2 enrichment
Shared flanks, not repeated: GGGAGUUCUACAGUCCGACGAUC … UGGAAUUCUCGGGUGUCAAGG
GUCCUGUGCUACACAUCGUAUGUACCGAAUCGGGGUUUGGGGAGGGGUUUUUUUGGGGAAAGUAUUAUGUUACGCCGUUCGGAUCUGCAC: 2.02
AAGUCCUGUGCUACACAUCGUAUGUACCGAAUCGGGGAAAAAGGGGAGGGGUGGGGAAAGUAUUAUGUUACGCCGUUCGGAUCUGCACUU: 1.86
UGGCCCUGGUGGCAUGGGGGGAGGAAGAGGUGGCCUCAUGGAUCGUGGUGGUCCCGGUGGAAUGUUCAGAGGUGGCCGUGGUGGAGACAG: 2.32
UCAAGGGUUAUACACGGAAAGCCGCUGCGCUGGAAGCGAUGAAGGACUACACCAAAGCCAUGGAUGUGUACCAGAAGGCGCUAGACCUGG: -1.49
CUCAAGUCCUGUGCUACACAUCGUAUGUACCGAAUCGGGAAGGAAGGGGAAGGGAAAGUAUUAUGUUACGCCGUUCGGAUCUGCACUUCC: 0.969
UAACUUUAGAGGAGGAUCUGAUGGAUAUGGCAGUGGACGUAGAUUUGGGGAUGGCUAUAAUGGGUAUGGAGGAGGACCUGGAGGUGGCAA: -1.06
UGGCCCUGGUGGCAUUCGGGGAGGAAGAGGUGGCCUCAUGGAUCGUGGUGGUCCCGGUGGAAUGUUCAGAGGUGGCCGUGGUGGAGACAG: 2.18
UCCUGUGCUACACAUCGUAUGUACCGAAUCGGGGUUUUUGGGUUUUUGGGGUUUUUGGGAAAGUAUUAUGUUACGCCGUUCGGAUCUGCA: -0.0586
UGGCCCUGGUGGCAUGCGGGGAGGAAGAGGUGGCCUCAUGGAUCGUGGUGGUCCCGGUGGAAUGUUCAGAGGUGGCCGUGGUGGAGGCAG: 3.1

Set 4
Target: Interferon regulatory factor 7, full length, phosphomimetic (IRF7, Homo sapiens, UniProt Q92985, residues 1-503, S101K/S471D/S472D/S475D/S476D/S477D/S483D/S484D/S487D)
Chain of UniProt Q92985 (whole entry, unmodified, looked up): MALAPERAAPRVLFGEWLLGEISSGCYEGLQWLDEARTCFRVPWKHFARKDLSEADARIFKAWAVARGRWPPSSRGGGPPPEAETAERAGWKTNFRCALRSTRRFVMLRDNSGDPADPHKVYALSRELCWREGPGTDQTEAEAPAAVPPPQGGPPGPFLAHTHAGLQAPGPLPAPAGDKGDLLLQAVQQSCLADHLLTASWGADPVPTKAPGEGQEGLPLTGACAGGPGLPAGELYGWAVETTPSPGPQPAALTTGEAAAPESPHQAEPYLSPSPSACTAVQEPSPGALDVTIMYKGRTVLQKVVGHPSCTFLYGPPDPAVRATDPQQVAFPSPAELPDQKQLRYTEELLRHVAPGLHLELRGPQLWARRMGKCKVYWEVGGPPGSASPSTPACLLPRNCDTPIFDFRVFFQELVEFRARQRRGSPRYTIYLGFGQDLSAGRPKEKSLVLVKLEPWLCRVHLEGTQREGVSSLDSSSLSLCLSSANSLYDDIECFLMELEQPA
Technique: protein-binding microarray
Form: double-stranded DNA, one strand shown
Matrix: in vitro
Tested at: 250 nM
Notes: 60-bp whole probe
Added: salmon DNA 0.4 mg/ml
Reference: random background probes
Reading: higher = stronger binding
Measurement: log fluorescence
Shared flanks, not repeated: GCCTAGCAC … GTCTTGATTCGCTTGACGCTGCTG
TTAGATCTCAGTCTCGCTTAGTGCTAG: 0.912 z-score
TTAGGTTCCGGTTTCGGTCAGTGCTAG: 8.2 z-score
TCAGAACTCAACTGTCTGACTGTGCTA: -0.122 z-score
CACGAACTGAGACTGGAGACGTGCTAG: -0.0552 z-score
TCATTTTTATTTATAAAACTGTGCTAG: 0.895 z-score
GACCGTTTCCTTATCCTGACGTGCTAG: 2.82 z-score
TCACTGCTCCTCTTTTTTACTGTGCTA: -0.366 z-score
GACGATCTCAGTCTCGAGGCGTGCTAG: -0.128 z-score
GACGATATCAGTCTCGTGACGTGCTAG: 0.141 z-score
GACGATTCCAGTTTCGACACGTGCTAG: 3.39 z-score
GACGAACTGGGGTTTCGTGACGTGCTA: 0.426 z-score
GACGATTCTAGTTTCGAGACGTGCTAG: 5.39 z-score
TTAAATTTCAGACTGGATTAGTGCTAG: 0.0917 z-score
TTAGCACTGGGGTTTCGGTTAGTGCTA: 4.91 z-score
TTAGGTATCGGACTAGGTTAGTGCTAG: 0.538 z-score
GGCGATTTCAGTCTCGAGACGTGCTAG: 0.267 z-score
GAGAATTTCCACTTTGACTTGTGCTAG: 1.38 z-score
AACTTTCTCTGCTCTTTTCAAGTGCTA: 1.13 z-score
TAAGATATCGGGTATCGATTAGTGCTA: 0.969 z-score

For quick reference, copied from above (set 1):
ATTGCAGG: -0.093
CTTGCGCA: 0.29
CAGCCTGA: -0.192
AGTAAGTG: -0.0992
AAGATTTC: 0.0191
